Measured values collected from several papers.
± marks the error that the study gave.
rep main protease: Replicase polyprotein 1ab, main protease (rep, Severe acute respiratory syndrome coronavirus 2, UniProt P0DTD1)

| Structure (SMILES) | target or system | assay | test system | setting | quantity | value |
| --- | --- | --- | --- | --- | --- | --- |
| Cn1cnc(Cn2c(=O)[nH]/c(=N\c3cc4cn(C)nc4cc3Cl)n(Cc3cc(F)c(F)cc3F)c2=O)n1 | SARS-CoV-2 | viral replication | Vero C1008, wild type | 12.5 µM | inhibition | 100% |
| COc1ccc(S(=O)(=O)N(Cc2cccnc2)[C@@H](C(=O)NO)C(C)C)cc1 | rep main protease | reporter gene (Gaussia luciferase), inhibitor | – | 20 µM | inhibition | -1.28% |
| Nc1ncnc2c([C@@H]3N[C@H](CO)[C@@H](O)[C@H]3O)c[nH]c12 | Marburg marburgvirus | viral RNA in supernatant | HeLa, Musoke | 0.8 µM, 1 h | inhibition | 5.6% |
| COc1ccc2cc1Oc1ccc(cc1)C[C@H]1c3cc(c(OC)cc3CCN1C)Oc1c(OC)c(OC)cc3c1[C@H](C2)N(C)CC3 | SARS-CoV-2 | viral replication | Vero E6, USA-WA1/2020 | 2.5 µM | inhibition | 88.9% |
| C#Cc1cncc(C(=O)N2CCC3(CC2)CN(C(=O)[C@H]2CCC[C@@H]2O)Cc2ccccc2O3)c1 | rep main protease | enzyme activity, inhibitor | – | 5 µM, run 2 | inhibition | 10.8% |
| CC(C)=CCc1c(O)ccc(C(=O)/C=C/c2ccc(O)cc2)c1O | SARS-CoV-2 | cytopathic effect | Vero E6 | 50 µM, first run | inhibition | 0% |
| Cn1c(=O)c2c(nc(C=Cc3cccc(Cl)c3)n2C)n(C)c1=O | SARS-CoV-2 | viral replication | Vero E6, USA-WA1/2020 | 2.5 µM | inhibition | 57% |
| CCN(CCO)CCCC(C)Nc1ccnc2cc(Cl)ccc12 (stereo not shown) | SARS-CoV-2 | – | – | 15 µM | inhibition | 17.9% |
| Cn1cnc(Cn2c(=O)[nH]/c(=N\c3cc4cn(C)nc4cc3Cl)n(Cc3cc(F)c(F)cc3F)c2=O)n1 | – | – | human, all renal function groups | oral, 375 mg | dry mouth TEAE, Mild severity | 3.1% |
| CC(=O)O[C@H]1CC[C@]2(C)[C@H]3CC[C@]4(C)Oc5oc(C)cc(=O)c5C[C@H]4[C@]3(C)CC[C@H]2C1(C)C | SARS-CoV-2 | viral replication | mNeonGreen reporter | 50 µM | inhibition | 102% |
| CC(C)(C)c1ccc(C(O)CCCN2CCC(C(O)(c3ccccc3)c3ccccc3)CC2)cc1 (stereo not shown) | rep main protease | reporter gene (Gaussia luciferase), inhibitor | – | 20 µM | inhibition | -6.75% |
| CNC(=O)[C@@H](NC(=O)[C@H](CC(C)C)[C@H](O)C(=O)NO)C(C)(C)C | – | – | mouse | 60 µg/mouse, observed up to 0 h, with: Daboia russelii venom, South, preincubated | time of death | > 24 h |
| CCCCc1oc2ccc(C(=O)OC(C)C)cc2c1C(=O)c1ccc(CCCN(CCCC)CCCC)cc1 | SARS-CoV-2 | viral replication | Vero C1008, USA-WA1/2020 | 2.5 µM, reconfirmation | inhibition | 40.8% |
| COc1ccc(C[C@@H]2c3cc(Oc4cc(C[C@@H]5c6cc(O)c(OC)cc6CCN5C)ccc4O)c(OC)cc3CCN2C)cc1 | SARS-CoV-2 | viral cytopathic effect | Vero E6 | 3.125 µM | inhibition | 0% |
| CC[C@H](C)[C@H](NC(=O)[C@H](CC(C)C)NC(=O)[C@H](Cc1c[nH]c2ccccc12)NC(=O)[C@H](CCC(N)=O)NC(=O)[C@@H](NC(=O)[C@H](Cc1ccccc1)NC(=O)[C@H](C)NC(=O)[C@H](CCCCNC(=O)COCCOCCNC(=O)COCCOCCNC(=O)CC[C@H](NC(=O)CCCCCCCCCCCCCCCCCCC(=O)O)C(=O)O)NC(=O)[C@H](CCC(N)=O)NC(=O)[C@H](C)NC(=O)[C@@H](NC(=O)[C@H](CCCCN)NC(=O)[C@H](CC(=O)O)NC(=O)[C@H](CC(C)C)NC(=O)C(C)(C)NC(=O)[C@@H](NC(=O)[C@H](CO)NC(=O)[C@H](Cc1ccc(O)cc1)NC(=O)[C@H](CC(=O)O)NC(=O)[C@H](CO)NC(=O)[C@@H](NC(=O)[C@H](Cc1ccccc1)NC(=O)[C@@H](NC(=O)CNC(=O)[C@H](CCC(=O)O)NC(=O)C(C)(C)NC(=O)[C@@H](N)Cc1ccc(O)cc1)[C@@H](C)O)[C@@H](C)O)[C@@H](C)CC)[C@@H](C)CC)C(C)C)C(=O)N[C@@H](C)C(=O)NCC(=O)NCC(=O)N1CCC[C@H]1C(=O)N[C@@H](CO)C(=O)N[C@@H](CO)C(=O)NCC(=O)N[C@@H](C)C(=O)N1CCC[C@H]1C(=O)N1CCC[C@H]1C(=O)N1CCC[C@H]1C(=O)N[C@@H](CO)C(N)=O | – | – | healthy subjects, single ascending dose | 0.5 mg, day 29 | serum lipase | 26.3 ± 8 U/L |
| CCOC(=O)[C@H]1O[C@@H]1C(=O)N[C@@H](CC(C)C)C(=O)NCCC(C)C | SARS-CoV-2 | – | – | 0.06 µM | inhibition | -1.62% |
| CC(C)(C)[C@H](NC(=O)C(F)(F)F)C(=O)N1C[C@H]2[C@@H]([C@H]1C(=O)N[C@H](C#N)C[C@@H]1CCNC1=O)C2(C)C | SARS-CoV-2 | viral replication | Vero E6 | 0.5 µM | inhibition | 79.2% |
| CC(C)(C)[C@H](NS(=O)(=O)C(F)(F)F)C(=O)N1C[C@H]2[C@@H]([C@H]1C(=O)N[C@H](C#N)C[C@@H]1CCNC1=O)C2(C)C | SARS-CoV-2 | viral replication, qRT-PCR viral RNA | Vero E6 | 10 µM | inhibition | 100% |
| O=C(CSc1nc2ccccc2c(=O)[nH]1)NNC(=O)c1ccccc1Br | SARS-CoV-2 | viral replication, plaque reduction | – | 62.5 µM | inhibition | 45.1 ± 1.71% |
| CCCC(=O)N(C)Cc1c(-c2ccc(Cl)cc2)nc2ccccn12 | SARS-CoV-2 | viral replication | Vero E6, USA-WA1/2020 | 2.5 µM | inhibition | 43.5% |
| O=C(CSc1nc2c(c(=O)[nH]1)CCCC2)NNC(=O)c1ccc(Cl)cc1 | SARS-CoV-2 | virucidal activity, plaque reduction | – | 125 µM | inhibition | 53% |
| CC(C)=CCN1Cc2cc(Cl)cc3[nH]c(=S)n(c23)C[C@@H]1C | SARS-CoV-2 | viral replication | Vero E6, USA-WA1/2020 | 2.5 µM | inhibition | 79.1% |
| O=C(O[C@@H]1Cc2c(O)cc(O)cc2O[C@@H]1c1cc(O)c(O)c(O)c1)c1cc(O)c(O)c(O)c1 | SARS-CoV-2 | cytopathic effect | Vero E6 | 12.5 µM, first run | inhibition | 0% |
| Oc1ccc(-c2nc(-c3ccncc3)c(-c3ccc(F)cc3)[nH]2)cc1 | SARS-CoV-2 | viral replication | Vero E6, USA-WA1/2020 | 2.5 µM | inhibition | 54.6% |
| Cc1nn(-c2ccc(Cl)cc2)c2c1C(c1ccc(F)cc1F)C(C#N)=C(N)O2 (stereo not shown) | SARS-CoV-2 | viral replication | Vero | 1 µM | inhibition | 0.758% |

Excerpt of the above:
| Structure (SMILES) | target or system | assay | test system | setting | quantity | value |
| --- | --- | --- | --- | --- | --- | --- |
| COc1ccc(S(=O)(=O)N(Cc2cccnc2)[C@@H](C(=O)NO)C(C)C)cc1 | rep main protease | reporter gene (Gaussia luciferase), inhibitor | – | 20 µM | inhibition | -1.28% |
| CC(=O)O[C@H]1CC[C@]2(C)[C@H]3CC[C@]4(C)Oc5oc(C)cc(=O)c5C[C@H]4[C@]3(C)CC[C@H]2C1(C)C | SARS-CoV-2 | viral replication | mNeonGreen reporter | 50 µM | inhibition | 102% |
| Cn1c(=O)c2c(nc(C=Cc3cccc(Cl)c3)n2C)n(C)c1=O | SARS-CoV-2 | viral replication | Vero E6, USA-WA1/2020 | 2.5 µM | inhibition | 57% |
